Measurements gathered from unrelated publications.
Lines come from different studies, so protocols differ.

Structure (SMILES) | assay | test system | setting | renal clearance [mL/min]
C[C@H](O)c1cc(C(=O)N[C@@H](C)Cn2ccc(-c3ccc(C#N)c(Cl)c3)n2)n[nH]1 | item: darolutamide | human, fasted | oral, 300 mg darolutamide tablet, geometric mean | 5.99
Cn1cc(-c2cn3nccc3c(-c3cnn([C@]4(CC#N)C[C@@H](C#N)C4)c3)n2)cn1 | – | healthy human | dose not given, day 10, once daily dosing | 16.7
C[C@@H](Oc1ccc(S(C)(=O)=O)cc1C(=O)N1C[C@@H]2C[C@]2(c2cc(C(F)(F)F)on2)C1)C(F)(F)F | – | young healthy humans, plasma and urine | oral, 50 mg, 0 to 24 h, single dose | 5.64
CN[C@@H]1COc2c(S(=O)(=O)NC(=O)Nc3c4c(cc5c3CCC5)CCC4)cnn2C1 | – | human, urine | oral, 900 mg twice daily, 0-12 h, day 7 | 5.67
Cc1cc(-c2nccc3c2ccn3CC(=O)Nc2ccc(-c3cnccn3)cn2)ccn1 | – | human, plasma and urine | oral, 15 mg once daily, day 1, geometric mean | 5.85
CC(C)n1c(C2CCNCC2)nc2c([N+](=O)[O-])c(Br)c(Br)cc21 | – | human | oral, 125 mg single dose, mean | 12.7
O=C(c1nc2n(n1)[C@H](c1ccccc1)C[C@@H]2F)C1CC1 | – | human | 5 mg single dose, geometric mean | 0.138
Cl.[2H]C([2H])([2H])CC(=O)c1cnc(NC(=O)C2CC2)cc1Nc1cccc(-c2ncn(C([2H])([2H])[2H])n2)c1OC | – | human, non-fasted | oral, 60 mg, once daily multiple dose, mean | 1.06
CN(C)C(=O)c1cc2cnc(Nc3ccc(N4CCNCC4)cn3)nc2n1C1CCCC1 | – | human, normal renal function, plasma and urine | oral, 400 mg, single dose, geometric mean | 84.7

Some of these lines once more:
Structure (SMILES) | assay | test system | setting | renal clearance [mL/min]
Cn1cc(-c2cn3nccc3c(-c3cnn([C@]4(CC#N)C[C@@H](C#N)C4)c3)n2)cn1 | – | healthy human | dose not given, day 10, once daily dosing | 16.7
